Measurements collected from several papers.
± gives the spread as reported.
ALOX5: Polyunsaturated fatty acid 5-lipoxygenase (ALOX5, Homo sapiens, UniProt P09917)
UniProt P09917, sequence (whole entry, looked up): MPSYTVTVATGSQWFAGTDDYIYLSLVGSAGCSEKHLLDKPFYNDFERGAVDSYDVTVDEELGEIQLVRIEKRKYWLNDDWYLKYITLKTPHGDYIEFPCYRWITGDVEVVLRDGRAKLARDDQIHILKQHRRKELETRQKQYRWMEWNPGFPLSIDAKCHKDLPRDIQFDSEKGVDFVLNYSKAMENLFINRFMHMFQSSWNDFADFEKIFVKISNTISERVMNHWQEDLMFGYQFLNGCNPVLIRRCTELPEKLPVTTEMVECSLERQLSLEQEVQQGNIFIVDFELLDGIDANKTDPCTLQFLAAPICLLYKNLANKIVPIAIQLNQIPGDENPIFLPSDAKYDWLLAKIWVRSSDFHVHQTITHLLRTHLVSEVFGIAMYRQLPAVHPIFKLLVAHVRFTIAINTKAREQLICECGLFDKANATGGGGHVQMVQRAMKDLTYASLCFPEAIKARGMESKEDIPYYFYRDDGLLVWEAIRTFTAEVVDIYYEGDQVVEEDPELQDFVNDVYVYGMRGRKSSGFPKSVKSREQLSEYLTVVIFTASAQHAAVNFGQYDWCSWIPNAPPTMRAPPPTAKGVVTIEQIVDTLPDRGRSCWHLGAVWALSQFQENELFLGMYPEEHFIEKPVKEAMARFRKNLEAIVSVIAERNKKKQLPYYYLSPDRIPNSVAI
UniProt P37353, sequence (whole entry, looked up): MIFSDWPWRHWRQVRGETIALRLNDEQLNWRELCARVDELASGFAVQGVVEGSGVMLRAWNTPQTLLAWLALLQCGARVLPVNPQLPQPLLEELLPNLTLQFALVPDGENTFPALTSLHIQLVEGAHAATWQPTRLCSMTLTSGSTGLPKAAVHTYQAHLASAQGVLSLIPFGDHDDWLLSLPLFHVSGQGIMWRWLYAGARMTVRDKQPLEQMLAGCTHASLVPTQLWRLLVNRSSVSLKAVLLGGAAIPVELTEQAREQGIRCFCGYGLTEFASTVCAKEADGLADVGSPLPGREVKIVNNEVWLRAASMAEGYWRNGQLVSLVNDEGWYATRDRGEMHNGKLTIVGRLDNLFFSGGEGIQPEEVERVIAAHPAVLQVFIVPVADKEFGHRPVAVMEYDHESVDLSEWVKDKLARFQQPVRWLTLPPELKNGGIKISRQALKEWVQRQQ
UniProt P30542, sequence (whole entry, looked up): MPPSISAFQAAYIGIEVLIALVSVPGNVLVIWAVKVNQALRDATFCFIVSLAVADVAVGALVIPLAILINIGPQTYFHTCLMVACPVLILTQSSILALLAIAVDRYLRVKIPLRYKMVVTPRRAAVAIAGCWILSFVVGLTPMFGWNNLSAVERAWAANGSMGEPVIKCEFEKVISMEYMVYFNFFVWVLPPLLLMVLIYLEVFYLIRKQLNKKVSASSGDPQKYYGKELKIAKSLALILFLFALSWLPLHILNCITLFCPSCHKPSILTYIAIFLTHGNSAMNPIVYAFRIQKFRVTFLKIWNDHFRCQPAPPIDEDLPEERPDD
UniProt Q9NZQ7, sequence (whole entry, looked up): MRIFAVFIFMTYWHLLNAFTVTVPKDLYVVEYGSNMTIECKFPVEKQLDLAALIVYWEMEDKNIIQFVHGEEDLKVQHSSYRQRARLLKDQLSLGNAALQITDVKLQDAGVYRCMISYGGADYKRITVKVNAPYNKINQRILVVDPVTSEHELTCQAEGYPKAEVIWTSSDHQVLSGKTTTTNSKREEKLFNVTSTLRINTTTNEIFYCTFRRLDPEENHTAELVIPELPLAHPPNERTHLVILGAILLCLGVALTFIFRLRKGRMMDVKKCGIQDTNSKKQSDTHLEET
UniProt Q15391, sequence (whole entry, looked up): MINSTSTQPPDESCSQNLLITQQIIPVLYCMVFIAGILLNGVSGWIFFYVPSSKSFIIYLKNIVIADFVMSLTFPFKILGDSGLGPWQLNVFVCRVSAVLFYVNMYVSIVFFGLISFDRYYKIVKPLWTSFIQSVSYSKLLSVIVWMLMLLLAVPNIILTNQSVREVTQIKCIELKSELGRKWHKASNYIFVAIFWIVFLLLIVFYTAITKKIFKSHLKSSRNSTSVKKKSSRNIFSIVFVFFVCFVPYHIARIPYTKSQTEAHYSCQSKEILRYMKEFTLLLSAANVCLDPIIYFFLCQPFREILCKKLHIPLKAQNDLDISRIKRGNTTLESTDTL
UniProt Q02768, sequence (whole entry, looked up): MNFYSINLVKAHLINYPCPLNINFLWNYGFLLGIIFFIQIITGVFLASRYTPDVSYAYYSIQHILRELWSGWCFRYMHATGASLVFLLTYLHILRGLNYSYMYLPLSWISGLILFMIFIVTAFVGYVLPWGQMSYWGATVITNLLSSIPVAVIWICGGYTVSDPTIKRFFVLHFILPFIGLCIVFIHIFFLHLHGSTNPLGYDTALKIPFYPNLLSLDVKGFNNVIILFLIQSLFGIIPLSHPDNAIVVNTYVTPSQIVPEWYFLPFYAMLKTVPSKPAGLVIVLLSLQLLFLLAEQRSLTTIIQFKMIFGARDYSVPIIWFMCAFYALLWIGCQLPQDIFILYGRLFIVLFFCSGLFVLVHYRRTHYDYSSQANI
UniProt P09769, sequence (whole entry, looked up): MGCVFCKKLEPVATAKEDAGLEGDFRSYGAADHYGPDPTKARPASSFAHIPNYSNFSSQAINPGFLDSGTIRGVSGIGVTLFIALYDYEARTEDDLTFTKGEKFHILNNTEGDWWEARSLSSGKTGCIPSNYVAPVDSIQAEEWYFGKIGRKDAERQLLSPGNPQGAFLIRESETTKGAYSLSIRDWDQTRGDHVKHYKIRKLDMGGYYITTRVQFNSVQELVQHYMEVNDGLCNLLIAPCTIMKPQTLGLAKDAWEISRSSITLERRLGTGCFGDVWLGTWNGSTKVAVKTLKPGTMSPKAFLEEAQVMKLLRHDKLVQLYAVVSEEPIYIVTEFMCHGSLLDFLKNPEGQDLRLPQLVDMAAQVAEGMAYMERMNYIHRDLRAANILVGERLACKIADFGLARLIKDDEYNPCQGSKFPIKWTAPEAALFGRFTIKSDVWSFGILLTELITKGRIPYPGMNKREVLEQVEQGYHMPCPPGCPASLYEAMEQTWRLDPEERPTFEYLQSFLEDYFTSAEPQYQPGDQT
UniProt Q92731, sequence (whole entry, looked up): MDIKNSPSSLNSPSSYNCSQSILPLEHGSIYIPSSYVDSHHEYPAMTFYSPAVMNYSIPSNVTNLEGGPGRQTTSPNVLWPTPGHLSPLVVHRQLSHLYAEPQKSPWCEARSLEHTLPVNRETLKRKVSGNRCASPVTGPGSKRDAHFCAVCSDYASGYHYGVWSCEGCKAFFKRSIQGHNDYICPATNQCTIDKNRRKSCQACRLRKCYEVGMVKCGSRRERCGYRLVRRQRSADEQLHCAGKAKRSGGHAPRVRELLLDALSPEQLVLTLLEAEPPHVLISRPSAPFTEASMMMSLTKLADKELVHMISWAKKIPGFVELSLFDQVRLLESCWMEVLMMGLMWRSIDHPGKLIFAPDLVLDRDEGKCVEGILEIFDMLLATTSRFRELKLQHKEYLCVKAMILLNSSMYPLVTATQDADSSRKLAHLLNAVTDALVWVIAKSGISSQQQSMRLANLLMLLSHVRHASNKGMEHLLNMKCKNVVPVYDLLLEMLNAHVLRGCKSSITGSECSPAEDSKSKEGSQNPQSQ
UniProt Q01813, sequence (whole entry, looked up): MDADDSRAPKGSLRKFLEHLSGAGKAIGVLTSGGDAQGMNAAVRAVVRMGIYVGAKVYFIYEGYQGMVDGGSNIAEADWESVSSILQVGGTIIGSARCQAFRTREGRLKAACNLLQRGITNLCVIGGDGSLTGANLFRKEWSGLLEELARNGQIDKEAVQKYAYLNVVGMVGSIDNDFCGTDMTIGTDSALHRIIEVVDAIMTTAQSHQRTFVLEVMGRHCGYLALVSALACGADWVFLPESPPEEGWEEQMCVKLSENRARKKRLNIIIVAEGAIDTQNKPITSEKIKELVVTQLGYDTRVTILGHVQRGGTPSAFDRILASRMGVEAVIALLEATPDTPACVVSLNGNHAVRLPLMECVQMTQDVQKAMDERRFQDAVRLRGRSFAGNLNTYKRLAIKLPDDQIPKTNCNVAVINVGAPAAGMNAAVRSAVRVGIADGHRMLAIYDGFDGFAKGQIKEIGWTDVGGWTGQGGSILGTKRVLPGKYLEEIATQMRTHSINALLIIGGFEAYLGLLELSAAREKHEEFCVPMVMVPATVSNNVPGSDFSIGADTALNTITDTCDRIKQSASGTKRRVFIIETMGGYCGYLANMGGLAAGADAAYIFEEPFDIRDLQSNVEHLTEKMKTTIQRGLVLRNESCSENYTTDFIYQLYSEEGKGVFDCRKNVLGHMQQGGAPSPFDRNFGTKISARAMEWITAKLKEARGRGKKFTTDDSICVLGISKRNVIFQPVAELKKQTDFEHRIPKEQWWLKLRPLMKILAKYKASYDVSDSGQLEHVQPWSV
UniProt P08246, sequence (whole entry, looked up): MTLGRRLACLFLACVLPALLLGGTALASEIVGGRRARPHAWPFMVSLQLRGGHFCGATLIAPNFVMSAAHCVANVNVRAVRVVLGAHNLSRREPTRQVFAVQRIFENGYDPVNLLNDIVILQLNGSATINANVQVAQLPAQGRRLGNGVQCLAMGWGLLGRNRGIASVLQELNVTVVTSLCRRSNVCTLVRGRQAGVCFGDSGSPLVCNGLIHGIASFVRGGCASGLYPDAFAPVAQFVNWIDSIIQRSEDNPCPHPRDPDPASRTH
UniProt P21462, sequence (whole entry, looked up): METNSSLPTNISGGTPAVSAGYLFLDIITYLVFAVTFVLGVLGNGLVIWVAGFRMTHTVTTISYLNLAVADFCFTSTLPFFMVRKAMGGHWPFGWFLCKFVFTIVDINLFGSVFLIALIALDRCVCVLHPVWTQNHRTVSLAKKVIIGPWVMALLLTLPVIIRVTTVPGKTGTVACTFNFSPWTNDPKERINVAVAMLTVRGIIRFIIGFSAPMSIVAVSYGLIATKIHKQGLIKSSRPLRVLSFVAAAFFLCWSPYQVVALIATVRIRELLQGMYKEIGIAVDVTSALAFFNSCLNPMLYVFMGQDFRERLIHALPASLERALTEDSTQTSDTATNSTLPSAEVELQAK

With `CC(=O)C1=C(C)NC(=O)NC1c1cccc(Br)c1` (stereo not drawn) the IC50 was 97900 nM (AMY2 (Sus scrofa, UniProt P00690); enzyme activity, inhibitor).
With `Oc1ccc(/C=C/c2nc(CCc3ccccc3)no2)cc1O` the IC50 was 930 nM (ALOX5; enzyme activity in cells, inhibitor, HPLC).
For `COc1cc2nccc(Oc3ccc(NC(=O)NC4CC4)c(Cl)c3)c2cc1C(N)=O`, the IC50 was 3 nM (FLT1 (Homo sapiens, UniProt P17948); enzyme activity, inhibitor).
`CCNC(=O)[C@H]1O[C@@H](n2cnc3c(NCCCCNC(=O)CCCCCNC(=O)CCC4=[N+]5C(=Cc6c(C)cc(C)n6[B-]5(F)F)C=C4)ncnc32)[C@H](O)[C@@H]1O` has an IC50 of 269 nM (ADORA1 (Homo sapiens, UniProt P30542); CRE reporter gene, agonist; CHO-A1; Gi-mediated inhibition, with: forskolin).
For `CC(=O)c1c(C)c2cnc(Nc3ccc(N4CCNCC4)cn3)nc2n(C2CCCC2)c1=O`, the IC50 was 500 nM (TTK (Homo sapiens, UniProt P33981); enzyme activity, inhibitor, radiometric).
With `O=C1C2=C(Nc3ccccc3SC2c2ccc(O)c(O)c2)c2ccccc21` (racemic) the IC50 was over 5000 nM (MT-CYB, bc1 complex (Plasmodium falciparum, UniProt Q02768); enzyme activity, inhibitor; purified mitochondrial fractions).
`CC[C@H](C)[C@@H]1NC(=O)[C@H](Cc2c[nH]c3ccccc23)NC(=O)CNC(=O)c2cc3cc(c2)C(=O)NC[C@H](NC(=O)[C@H](Cc2ccc(O)cc2)NC1=O)C(=O)N[C@@H](Cc1ccccc1)C(=O)N[C@@H](Cc1ccc2ccccc2c1)C(=O)N[C@@H](CCCNC(=N)N)C(=O)N[C@H](CCCNC(=N)N)C(=O)N[C@@H](CCCNC(=N)N)C(=O)N[C@H](C(=O)NCCC(=O)NCCC(=O)N[C@@H](CCCCN)C(N)=O)CNC3=O` gave an IC50 of 5900 ± 600 nM (NF-kappa-B essential modulator, with IKK-beta (IKBKG, Homo sapiens, UniProt Q9Y6K9); inhibitor, HTRF).
`N=C(NCCCSCC1OC(n2cnc3c(N)ncnc32)C(O)C1O)NCCCC(N)C(N)=O` (stereo not drawn) has an IC50 of over 100000 nM (EHMT2 (Homo sapiens, UniProt Q96KQ7); enzyme activity, inhibitor, fluorescence).
`COc1cccc(Cc2cc(CCC(=O)NC3=C(C)C4=C(C)c5c(C)cc(C)n5[B-](F)(F)[N+]4=C3C)nn(CC(=O)Nc3ccc(Br)cc3)c2=O)c1` has an IC50 of 1410 nM (FPR1 (Homo sapiens, UniProt P21462); calcium mobilisation, antagonist; HL-60 transfected).
With `CNC(=O)C1CCN(c2cc(C)ccc2NC(=O)c2ccc(-c3cc(O)ccc3C)c(C)c2)CC1` the IC50 was 4390 nM (FGR (Homo sapiens, UniProt P09769); target engagement in cells, BRET).
For `CC(C)NC(=O)N1CC=C(c2cc3c(Nc4ccc5scnc5c4)ncnc3s2)CC1`, the IC50 was 20 nM (RIPK2 (Homo sapiens, UniProt O43353); enzyme activity, inhibitor).
The IC50 of `Cc1c(-c2ccccc2)cccc1N1C(=O)c2cc(O)c(CNCCO)cc2C1=O` is reported as 739 nM (Programmed cell death 1 ligand 1, with PD-1 (CD274, Homo sapiens, UniProt Q9NZQ7); PD-1/PD-L1 binding, inhibitor, TR-FRET).
`CC1=NNB(O)c2ccccc21` has an IC50 of 48000 nM (Neutrophil elastase (ELANE, Homo sapiens, UniProt P08246); enzyme activity, inhibitor, fluorescence).
The IC50 of `CCOC(=O)C(C)NC(=O)CN1C(=O)S/C(=C\c2ccc(F)cc2)C1=O` (stereo not drawn) is reported as over 100000 nM (α-amylase; enzyme activity, DNSA colorimetric).
For `Cc1cc(NC(=O)c2cccc(-n3cc(NC(=O)Nc4ccc(Cl)cc4)cn3)c2)ccn1`, the IC50 was 514 nM (MAPK10 (Homo sapiens, UniProt P53779); enzyme activity, inhibitor, TR-FRET).
`COC(=O)C1C(C=NO)=Cc2cc3c(cc2C1c1cc(OC)c(OC)c(OC)c1)OCO3` (stereo not drawn) gave an IC50 of over 20000 nM (tubulin alpha/beta (Leishmania infantum, UniProt A0A381MCS3+A4HTR0); tubulin polymerization, inhibitor; 37 °C).
`S=C1NC(=S)/C(=C/c2ccc3c(c2)OCO3)S1` has an IC50 of 1900 nM (PIK3CA (Homo sapiens, UniProt P42336); enzyme activity, inhibitor, radiometric).
`Nc1cc(-c2cc(-c3ccccc3)c(C(F)(F)F)s2)n[nH]1` gave an IC50 of 9020 nM (ESR2 (Homo sapiens, UniProt Q92731); coactivator recruitment, antagonist).
`Cc1nc2c(N)[n+]3cnc2n1[C@@H]1O[C@H](COP(=O)([O-])OP(=O)(O)OC[C@H]2O[C@@H]3[C@H](O)[C@@H]2O)[C@@H](O)[C@H]1O` has an IC50 of 530 nM (cADPR receptor, sea urchin; cADPR-induced Ca2+ release, antagonist, fluo-3 fluorimetry; sea urchin egg homogenate).
The IC50 of `COc1ccccc1CCN1CNc2c(c(=O)[nH]c(=O)n2-c2cccc(Cl)c2C)C1` is reported as 417 ± 77 nM (P2X purinoceptor 7 (Ailuropoda melanoleuca, UniProt G1M6C4); ion current, inhibitor, whole-cell patch clamp; HEK293 transfected; wild type, with: ATP).
`C=CC(=O)Nc1cccc(Cn2ncc3cnc(Nc4cnn(CCOC)c4)nc32)c1` gave an IC50 of 2.91 nM (TXK (Homo sapiens, UniProt P42681); enzyme activity, inhibitor, FRET).
`O=C(O)c1ccc(O)c(O)c1` has an IC50 of over 100000 nM (PTPN1 (Homo sapiens, UniProt P18031); enzyme activity, inhibitor, absorbance).
For `CC1(C)C2CC3C(c4ccccc4)c4c(O)c(C=O)c(O)c(C=O)c4OC3(C)C1C2` (single isomer, unassigned; (+)), the IC50 was 410 nM (PFKP (Homo sapiens, UniProt Q01813); enzyme activity, inhibitor; lysate).
`Nc1ncnc2c1ncn2C1OC(COc2ccc(CCC(=O)c3ccccc3C(=O)O)cc2)C(O)C1O` (stereo not drawn) has an IC50 of over 200000 nM (2-succinylbenzoate--CoA ligase (menE, Escherichia coli, UniProt P37353); enzyme activity, inhibitor, MenB-MenE coupled).
The IC50 of `O=c1[nH]c2ccccc2n1CCCCCN1CCN(c2ccc(F)cc2)CC1` is reported as 5 nM (HTR7 (Homo sapiens, UniProt P34969); cAMP, antagonist, TR-FRET).
The IC50 of `CCCCCCCCCCCCCCCCC1=C[C@H](C(=O)O)[C@H]2C(=O)C(C(=O)OC)=C(CCCCCCCCCCCCCCCC)[C@H]2[C@H]1C(=O)OC` is reported as over 50000 nM (protein kinase A; inhibitor).
With `Cc1cc(CN(C)C(=O)c2cccc(-c3ccc(F)cc3)c2)no1` the IC50 was over 50000 nM (Acetyl-CoA synthetase (Cryptococcus neoformans, UniProt J9VFT1)).
With `CC(C)c1ccc(C2C(C(=O)c3ccc(F)cc3)=C(O)C(=O)N2CCCCCC(=O)O)cc1` (stereo not drawn) the IC50 was 45.5 nM (P2Y purinoceptor 14 (P2RY14, Homo sapiens, UniProt Q15391); antagonist).
`CC12CC3(C)CC(C)(C1)CC(NC(=O)NC14CC5(C)CC(C)(CC(C)(C5)C1)C4)(C2)C3` has an IC50 of 66.2 nM (Ephx2 (Mus musculus, UniProt P34914); enzyme activity, inhibitor, fluorescence).
The IC50 of `NS(=O)(=O)Oc1ccc(CN(c2ccccc2)n2cnnc2)cc1` is reported as over 1000 nM (Steryl-sulfatase (STS, Homo sapiens, UniProt P08842); enzyme activity, inhibitor; JEG-3 intact monolayers).
`CN(C)CCCCCCNc1nc(NCCCCCN(C)C)nc2ccc(NC(=O)CCl)cc12` has an IC50 of 690 ± 200 nM (Histone-lysine N-methyltransferase SETDB1, triple Tudor domain (SETDB1, Homo sapiens, UniProt Q15047); binding, inhibitor).
`COc1ccc(C(=O)CCc2cc(C(CCc3ccc(O)cc3OC)c3ccc(O)cc3)c(O)cc2OC)cc1` (racemic) has an IC50 of 510 nM (ALOX5; enzyme activity, inhibitor, HPLC).
With `COC(=O)CCSc1nc2n(n1)C(c1cccc(OC)c1)C(C(=O)Nc1cncc(C)c1)=C(C)N2` (stereo not drawn) the IC50 was 660 nM (Phosphatidylinositol 4,5-bisphosphate 3-kinase catalytic subunit delta isoform, with p85 (PIK3CD, Homo sapiens, UniProt O00329); enzyme activity, inhibitor, ADP detection).

For quick reference, copied from above:
`Cc1nc2c(N)[n+]3cnc2n1[C@@H]1O[C@H](COP(=O)([O-])OP(=O)(O)OC[C@H]2O[C@@H]3[C@H](O)[C@@H]2O)[C@@H](O)[C@H]1O` has an IC50 of 530 nM (cADPR receptor, sea urchin; cADPR-induced Ca2+ release, antagonist, fluo-3 fluorimetry; sea urchin egg homogenate).
The IC50 of `CCCCCCCCCCCCCCCCC1=C[C@H](C(=O)O)[C@H]2C(=O)C(C(=O)OC)=C(CCCCCCCCCCCCCCCC)[C@H]2[C@H]1C(=O)OC` is reported as over 50000 nM (protein kinase A; inhibitor).
`N=C(NCCCSCC1OC(n2cnc3c(N)ncnc32)C(O)C1O)NCCCC(N)C(N)=O` (stereo not drawn) has an IC50 of over 100000 nM (EHMT2 (Homo sapiens, UniProt Q96KQ7); enzyme activity, inhibitor, fluorescence).
`C=CC(=O)Nc1cccc(Cn2ncc3cnc(Nc4cnn(CCOC)c4)nc32)c1` gave an IC50 of 2.91 nM (TXK (Homo sapiens, UniProt P42681); enzyme activity, inhibitor, FRET).
